# Assay results from different studies.
# Each line is one published result; not all experiments were run side by side. “And” joins repeats or separate records; there may be more than shown.
# Target: Cytochrome P450 2B6 (CYP2B6, Homo sapiens, UniProt P20813)
# Residues used in one study (P20813 1-491): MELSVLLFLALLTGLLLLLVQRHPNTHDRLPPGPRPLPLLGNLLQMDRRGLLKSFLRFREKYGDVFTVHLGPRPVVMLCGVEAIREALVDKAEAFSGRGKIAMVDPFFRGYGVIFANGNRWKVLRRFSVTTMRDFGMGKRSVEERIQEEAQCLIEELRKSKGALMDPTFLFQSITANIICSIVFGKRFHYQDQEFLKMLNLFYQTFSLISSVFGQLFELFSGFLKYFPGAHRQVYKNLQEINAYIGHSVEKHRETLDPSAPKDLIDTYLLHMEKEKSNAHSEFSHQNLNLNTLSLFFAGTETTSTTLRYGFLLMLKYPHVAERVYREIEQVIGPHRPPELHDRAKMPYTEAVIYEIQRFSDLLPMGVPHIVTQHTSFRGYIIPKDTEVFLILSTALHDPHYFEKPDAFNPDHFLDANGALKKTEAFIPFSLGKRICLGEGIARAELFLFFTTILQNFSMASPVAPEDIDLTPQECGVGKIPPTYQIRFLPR
SMILES,test,system,setting,quantity,result
CCOc1cc(-c2nncn2C)ccc1Nc1ncc2cc(C)nc(NCC(C)(C)C)c2n1,"enzyme activity, inhibitor",,,IC50,> 50 µM
Cn1cncc1[C@@](N)(c1ccc(Cl)cc1)c1ccc2c(c1)c(-c1cccc(Cl)c1)cc(=O)n2C,,,,Ki,2.9 µM
N#C[C@H](C[C@@H]1CCCNC1=O)NC(=O)[C@H](CC1CC1)NC(=O)c1cc2cccc(Cl)c2[nH]1,inhibitor,,,IC50,> 100 µM
OCc1cc([C@@H](O)CNCCCCCCOCCOCc2c(Cl)cccc2Cl)ccc1O,inhibitor,,20 min,IC50,7.27 µM
N#Cc1ccc([C@H]2CCc3cncn32)c(F)c1,inhibitor,,pH 7.4,IC50,≥ 20 µM and 20 µM
Clc1ccc(CCC(Cn2ccnc2)Sc2c(Cl)cccc2Cl)cc1 (stereo not drawn),inhibitor,,20 min,IC50,0.06 µM
CC(=O)N1CCN(c2ccc(OCC3COC(Cn4ccnc4)(c4ccc(Cl)cc4Cl)O3)cc2)CC1 (stereo not drawn),,pooled human liver microsomes,20 min,IC50,2.94 µM
Cc1nc(-c2cnc(NC(C)C)n(C)c2=O)ccc1Oc1ccnc(-c2cnn(C)c2)c1,"metabolism-dependent inhibition, inhibitor",,30 min preincubation with NADPH,IC50,> 100 µM
NC/C(=C\F)COc1cccc(Cn2c(=S)[nH]c(=O)c3[nH]cnc32)c1,"enzyme activity, inhibitor",,CYP2B6 screen,IC50,> 10 µM
